# Experimental data of several laboratories.
# Parts stem from different laboratories: compare values within a part only.

# Block 1
# Target: Interferon regulatory factor 7, full length, phosphomimetic (IRF7, Homo sapiens, UniProt Q92985, residues 1-503, S471D/S472D/S475D/S476D/S477D/S483D/S484D/S487D)
# UniProt Q92985, sequence (whole entry, unmodified, looked up): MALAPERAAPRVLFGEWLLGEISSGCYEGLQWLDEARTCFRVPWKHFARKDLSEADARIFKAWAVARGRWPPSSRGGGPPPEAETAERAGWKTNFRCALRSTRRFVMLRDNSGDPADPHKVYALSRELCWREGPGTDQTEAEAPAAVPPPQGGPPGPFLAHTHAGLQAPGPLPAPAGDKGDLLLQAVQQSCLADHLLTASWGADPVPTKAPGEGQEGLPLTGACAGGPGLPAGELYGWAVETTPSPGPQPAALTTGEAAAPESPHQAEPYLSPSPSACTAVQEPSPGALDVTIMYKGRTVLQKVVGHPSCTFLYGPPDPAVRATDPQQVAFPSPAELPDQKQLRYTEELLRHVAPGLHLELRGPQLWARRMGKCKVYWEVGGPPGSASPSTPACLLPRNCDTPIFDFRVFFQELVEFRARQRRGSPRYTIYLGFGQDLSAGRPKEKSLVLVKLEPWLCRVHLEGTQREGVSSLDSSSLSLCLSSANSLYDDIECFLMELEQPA
# Technique: protein-binding microarray
# Molecule type: double-stranded DNA, one strand shown
# Medium: in vitro
# Tested at: 2200 nM top
# Setting: 60-bp whole probe
# Added: salmon DNA 0.4 mg/ml
# Relative to: random background probes
# Reading: higher = stronger binding
# Constant ends, left off below: GCCTAGCAC … GTCTTGATTCGCTTGACGCTGCTG
Oligonucleotide,fitted relative affinity
TTAGGTTTCCTTATCTTTTAGTGCTAG,1.45 z-score
TTAGATTTCAGTGTCGATTAGTGCTAG,0.365 z-score
GACGGTATCGGATTTCGGGACGTGCTA,0.714 z-score
TTAGGTATCGGGACTGGTTTAGTGCTA,-0.239 z-score
TTAGGTAACGACTATCGGTTAGTGCTA,-0.0578 z-score

# Block 2
# Target: RNA binding protein fox-1 homolog 2, RRM domain, GST-SBP tag (RBFOX2, Homo sapiens, UniProt O43251-10, residues 100-194)
# Technique: RNA Bind-n-Seq
# Molecule type: RNA
# Medium: in vitro
# Tested at: 365 nM
# Setting: natural RNA segment, single round, ends assumed
# Relative to: no-protein control
# Reading: higher = stronger binding
# Construct (chain): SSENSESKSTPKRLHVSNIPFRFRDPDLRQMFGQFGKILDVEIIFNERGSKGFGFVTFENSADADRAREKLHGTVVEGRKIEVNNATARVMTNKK
Oligonucleotide,RBNS enrichment (R)
GGGAGUUCUACAGUCCGACGAUCGUGCAUCCCUGUGUUGAUAGCUCCUGCUUCGGUAGGGAACUCUGAGAUCCUGCUUCCAUCUCCAGCUUCUAGCACUCUCCUAGAGAGGGACAGACUGGAGCCAUGGCCUUUGGAAUUCUCGGGUGCCAA,0.301
GGGAGUUCUACAGUCCGACGAUCACUGUUAUGUUUGUAUAAUAGAACAGUAAUCAUUUAUUAUAAUCUAGGCAAGUUGUAAAUAAAUUCAUAAUUCAAACAGCCAGUAUAUAUGCAUAUAUGAGUGUUAUAUUUGGAAUUCUCGGGUGCCAA,0.605
GGGAGUUCUACAGUCCGACGAUCUGGGUCAUAGUCAUACCUUCUGAUGAGGUGGAGCCAACACCAGCAAAGUAUGAUGGCCCUGUAGCCUCUGACUAGUCCUGAAACAGAAGGCUGCACUCUAGGCUGAACCAUGGAAUUCUCGGGUGCCAA,0.367
GGGAGUUCUACAGUCCGACGAUCGGCCAUGUCCUGGCCCCGUCUCCACCAACCUUUGUGUGACAAAAACAAGGACAAAUUCCUGCUACUAAGACAUGCUGUUAACUCAGUCUGACUGGAAGAAUUUAGGACCAUGGAAUUCUCGGGUGCCAA,0.288

# Block 3
# Target: Histone acetyltransferase KAT6A, winged helix 1, GST fusion (KAT6A, Homo sapiens, UniProt Q92794, residues 1-85)
# Technique: protein binding microarray
# Molecule type: double-stranded DNA, one strand shown
# Medium: in vitro
# Tested at: not given
# Setting: 8-mer, flanks averaged, mean of 2 arrays, mostly near background
# Relative to: not given
# Reading: higher = stronger binding
# Residues (chain): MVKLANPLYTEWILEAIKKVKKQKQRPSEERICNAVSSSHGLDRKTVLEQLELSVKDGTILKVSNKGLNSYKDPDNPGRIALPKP
Oligonucleotide,E-score
TCCATACA,-0.162
ACTTAGCC,-0.0448
GTTCTTTA,-0.02
CGGCAAGA,0.252

# Single results of other studies
Substance,target,test,system,setting,scale,endpoint,result
"PhoQ, residues 284 288 289 292 302 303 AAQSYM","PhoP, residues 12 14 15 18 19 LHSVQ (Escherichia coli, UniProt P23836)","Sort-seq, refers to: YFP reporter",E. coli,"PhoQ-PhoP variant library, added: 10 µM Mg2+","relative to: high Mg2+ state, higher = stronger signaling",fold induction,14.7

# Repeated from above (block 3):
Oligonucleotide,E-score
TCCATACA,-0.162
